Results from different studies.
Every numbered part comes from another study and shows a few of its results, in no order.

Set 1
Target: RNA binding protein fox-1 homolog 2, RRM domain, GST-SBP tag (RBFOX2, Homo sapiens, UniProt O43251-10, residues 100-194)
Technique: RNA Bind-n-Seq
Molecule type: RNA
Matrix: in vitro
Tested at: 365 nM
Notes: natural RNA segment, single round, ends assumed
Baseline: no-protein control
Reading: higher = stronger binding
Measurement: RBNS enrichment (R)
All sequences stand within: GGGAGUUCUACAGUCCGACGAUC … UGGAAUUCUCGGGUGCCAA
Residues (chain): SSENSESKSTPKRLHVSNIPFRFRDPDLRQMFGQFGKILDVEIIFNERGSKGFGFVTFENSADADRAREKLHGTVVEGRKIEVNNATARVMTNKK
Oligonucleotide = ACUUCCAAGAAACAGUUCUGGCCCAAACCAGACUAUCCCUUCCCCAACAGUUCUCACUGCCUGGCCUUUGGAAGGUCACUUAACAUUUGUUGUUGUUUUGUUUUGUUUUU; result = 0.377
Oligonucleotide = UCUCGGUCCACGCUGCUUUCUUCCCAAAGGACAUGUAUAUUUGCAGAGCUCCACAUACAGAAACACAUUAUUUUGCAGAAAUAGGUGUUUUUAAGAAGUUUUACUACAGG; result = 0.336
Oligonucleotide = CAUCUGCAGCCAGAAGUCACCCCAAUACAGUACUUCUAAGGAGGGGUCAGGUAAAGCAUGAGAGAGACUCUCAGCGCCGCCGCUGCCGCUGCCAGGGUGAUCAUUCAUCA; result = 1.37
Oligonucleotide = GCCACUUCAUCUUAUGUGCCGCUGCUUGUCUUCAGCCCAUUAGCCAGGUACUGAGCGUCAGGCUCUGCAUAGCAGUUAAGCAGCACUGGUAGUGGUCUGCCGUGCAGGGG; result = 0.276
Oligonucleotide = GCUGGAUGAAGCUGCCUGGCCAGCGUGGAGAUGUCCAUGGCCGGCACCGCUGGGACGGAUUCAGUGCCAGGCUGGGCGCAAGGCCCCUUACCAGUGGGCUGCUGCUCUGU; result = 0.305
Oligonucleotide = UGGGCUCUGUUUAGGAGGGCAGUGAGACCACCCAGCCAAAUUGCUUCUCAACCCUAGACAAAGCCUUUGGCCAAGAGGGAGGUGCUGUUAGUUGGGCAGCCCUUCUGGGU; result = 0.406
Oligonucleotide = GCCAUUAGAAUAUCUUGCCUGAUAAGAGUGUUUUUGUUUACCUGUGGGCCUUGGGCCAUGCAGUAUCAGCUUGACCUUGCAAGGUCAAGCUGAGGAGACUAAGUUAGCCA; result = 0.689
Oligonucleotide = GUCCCUGCACUCCCUUGGUUGCCAAAAAAAUGAUAACUUAAAUCCCUUCCAGACUUAAGAAUUUUAUGGCAUGGCCCAAUUGAUAUAAACAUUUAGAAGGAAAUGAAAAG; result = 0.494

Set 2
Target: Sal-like protein 4, full length isoform B (SALL4, Homo sapiens, UniProt Q9UJQ4-2, residues 1-616)
Technique: universal PBM
Molecule type: double-stranded DNA, one strand shown
Matrix: in vitro
Tested at: not given
Notes: 8-mer, flanks averaged, mean of replicates
Reading: higher = stronger binding
Measurement: E-score
Construct (chain): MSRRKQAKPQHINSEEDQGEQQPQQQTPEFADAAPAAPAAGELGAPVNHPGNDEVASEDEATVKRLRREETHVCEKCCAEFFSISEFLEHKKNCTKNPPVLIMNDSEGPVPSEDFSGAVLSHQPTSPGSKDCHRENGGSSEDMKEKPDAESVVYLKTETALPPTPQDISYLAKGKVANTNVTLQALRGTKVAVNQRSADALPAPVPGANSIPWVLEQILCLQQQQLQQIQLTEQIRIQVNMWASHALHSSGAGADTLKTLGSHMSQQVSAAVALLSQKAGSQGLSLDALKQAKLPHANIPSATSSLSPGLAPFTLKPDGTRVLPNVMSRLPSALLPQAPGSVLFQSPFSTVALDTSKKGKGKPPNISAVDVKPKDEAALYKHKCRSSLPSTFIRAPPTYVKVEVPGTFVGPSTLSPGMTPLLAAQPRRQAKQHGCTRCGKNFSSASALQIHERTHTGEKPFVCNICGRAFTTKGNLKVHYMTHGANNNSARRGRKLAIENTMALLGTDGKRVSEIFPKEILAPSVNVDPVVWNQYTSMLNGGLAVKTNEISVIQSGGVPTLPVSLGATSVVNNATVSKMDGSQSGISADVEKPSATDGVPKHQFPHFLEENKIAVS
Oligonucleotide = CCCGCTAG; result = -0.118
Oligonucleotide = AAGCACCA; result = -0.148
Oligonucleotide = GCTAGCCC; result = -0.15
Oligonucleotide = TCAGCACA; result = 0.0305
Oligonucleotide = CAGTAACG; result = 0.0272
Oligonucleotide = ACTTAGAA; result = 0.0153
Oligonucleotide = GAGAGCGA; result = -0.104

Set 3
Target: Histone acetyltransferase KAT6A, winged helix 2, GST fusion (KAT6A, Homo sapiens, UniProt Q92794, residues 85-181)
Technique: protein binding microarray
Molecule type: double-stranded DNA, one strand shown
Matrix: in vitro
Tested at: not given
Notes: 8-mer, flanks averaged, mean of 2 arrays, mostly near background
Baseline: not given
Reading: higher = stronger binding
Measurement: E-score
Target sequence (chain): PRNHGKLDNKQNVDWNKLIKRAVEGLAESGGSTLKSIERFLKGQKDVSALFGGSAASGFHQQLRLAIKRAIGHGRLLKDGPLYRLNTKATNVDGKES
Oligonucleotide = ATAGCATC; result = 0.108
Oligonucleotide = CGATCAAG; result = 0.0175
Oligonucleotide = ACAGACAG; result = 0.0118
Oligonucleotide = CCGTTATC; result = -0.106
Oligonucleotide = AGGACCCT; result = -0.0848
Oligonucleotide = AAACATGA; result = -0.127

Other studies, line by line
Substance = PhoQ, residues 284 288 289 292 302 303 TASMAF; target = PhoP, residues 12 14 15 18 19 YHFSH (Escherichia coli, UniProt P23836); test = Sort-seq, item: YFP reporter; system = E. coli; setting = PhoQ-PhoP variant library, with: 10 µM Mg2+; how to read = baseline: high Mg2+ state, higher = stronger signaling; measurement = fold induction; result = 6.24

Excerpt of the above (set 1):
Oligonucleotide = UCUCGGUCCACGCUGCUUUCUUCCCAAAGGACAUGUAUAUUUGCAGAGCUCCACAUACAGAAACACAUUAUUUUGCAGAAAUAGGUGUUUUUAAGAAGUUUUACUACAGG; result = 0.336
Oligonucleotide = GUCCCUGCACUCCCUUGGUUGCCAAAAAAAUGAUAACUUAAAUCCCUUCCAGACUUAAGAAUUUUAUGGCAUGGCCCAAUUGAUAUAAACAUUUAGAAGGAAAUGAAAAG; result = 0.494
